Measurements of several laboratories.
Compare with care: the assays were run in different laboratories. “And” joins repeats or separate records; there may be more than shown. ± gives the spread as reported.

Structure (SMILES) | tested on | test | system | setting | how to read | quantity | result
C=CC(=O)Nc1cccc(Cn2ncc3cnc(Nc4cnn(CCOC)c4)nc32)c1 | CSNK1G2 human | binding, KINOMEscan | – | 100 nM | lower = stronger binding | percent of control | 94%
Cc1nc(N)nc2c1C(=O)N[C@@H](c1ccc(F)cc1-c1cccc(O[11CH3])n1)C2 | – | radioligand, ex vivo biodistribution | mouse, MDA-MB-231 xenograft, red blood cells | 60 min p.i. | – | SUV | 0.9 ± 0.1
N[C@@H](CC(=O)O)C(=O)OC(C(=O)O)c1ccc(Br)cc1[N+](=O)[O-] (mixture of isomers) | – | 1H NMR, dark | 50 mM sodium phosphate | concentration not given, pH 5.8, room temperature, 12.5% DMSO-d6 | – | hydrolysis half-life, A isomer | 618 ± 24 min
CC(C)(O)c1ncc([S@](N)(=O)=NC(=O)Nc2c3c(cc4c2CCC4)CCC3)s1 | – | refers to: skin, subcutaneous tissue disorders | healthy human | oral, 100 mg, CT formulation, fed | – | subjects with TEAEs | 33%
CC(C)(C)NCC(SS(=O)(=O)O)c1ccccc1 (centres unmarked) | – | – | Swiss Webster mice, Schistosoma mansoni-infected | 600 mg/kg single dose on day 7 post-infection, perfusion day 44 post-infection | – | body weight | 30 g
CC(C(=O)O)n1nc(Cn2cc3cc(OCC[18F])c(Cl)cc3n2)c2ccccc2c1=O (racemic) | – | – | rat, kidney | 30 min | – | tracer uptake | 1.44 %ID/g
C/C(N)=N/C(=N\S(=O)(=O)c1ccc(C(F)(F)F)cc1)N1C[C@H](c2ccccc2)C(c2ccc(Cl)cc2)=N1 | – | – | Beagle dog, plasma | oral, 18 mg/kg | – | oral bioavailability | 30.4%
O=C(Nc1cnccc1-c1ccc([18F])nc1)c1ccnc(NC(=O)C2CC2)c1 | – | – | FVB/NJ mice (both sexes), salivary gland | intravenous, dose not given, 120 min | – | SUV | 0.1
CCCC[C@H](NC(=O)CNC(=O)CNC(=O)[C@H](CCCCNC(=O)[C@H](CC(=O)O)NC(=O)C(C)c1ccc(CC(C)C)cc1)NC(=O)CN1CCN(CC(=O)O)CCN(CC(=O)O)CCN(CC(=O)O)CC1)C(=O)N[C@H]1CC(=O)NCCCC[C@@H](C(N)=O)NC(=O)[C@H](Cc2c[nH]c3ccccc23)NC(=O)[C@H](CCCNC(=N)N)NC(=O)[C@@H](Cc2ccccc2)NC(=O)[C@H](Cc2c[nH]cn2)NC1=O (some centres unmarked) [lutetium-177 labelled] | – | – | C57 mice, tumour | intravenous, 0.037 MBq, 24 h | reference: blood | tumour-to-tissue ratio | 120
CN1CCC[C@]1(C)/C=C/S(=O)(=O)NC(=O)Nc1c2c(cc3c1CC(O)C3)CCC2 (some centres unmarked) | – | – | human, plasma | oral, 50 mg twice daily of parent drug, metabolite of dosed drug | reference: day 14 over day 1 | AUC(0-24) accumulation ratio | 1.5
Cc1ccc(S(=O)(=O)Oc2nc3nc4ccccc4nc3nc2OS(=O)(=O)c2ccc(C)cc2)cc1 | – | dynamic light scattering | buffer | 20 µM | – | hydrodynamic radius | 2.31 nm
CCc1cnc(NC(=O)c2cc(S(=O)(=O)N3CCOCC3)ccc2N(C)C2CCCC2)s1 | – | – | mouse, blood | 10 mg/kg, 3 doses | – | Eosinophils absolute count | 193 µL⁻¹
[2H]C([2H])([18F])Oc1cc(C(=O)OCC2CCN(CCCC)CC2)ccc1N | – | PET | rhesus monkey, striatum | 60 min post injection | – | washout from peak | > 50%
O=C(Nc1cnccc1-c1ccc([18F])cc1)c1ccnc(NC(=O)C2CC2)c1 | – | – | mice, transgenic, GSK-3β, early-stage, skin | intravenous, dose not given, 120 min, together with: tariquidar 15 mg/kg i.v. pre-dose | – | SUV | 0.19
Cc1noc(C)c1Cn1cc(N2C(=O)CN(Cc3cccc(O[C@@H]4O[C@H](C(=O)O)[C@@H](O)[C@H](O)[C@H]4O)c3)C2=O)cn1 | – | – | Sprague-Dawley rat, male | oral, 30 mg/kg of parent drug, 12 h | – | plasma concentration | 105 ng/mL
CCC[C@H]1CC[C@H](c2ccc(NC(=S)NC[C@@H]3[C@@H](O)[C@@H](O)[C@H]4[C@H](O)CCCN43)cc2)CC1 | – | – | NOD-SCID mouse, serum | ip, 30 mg/kg | – | ALT | 102 ± 70.6 U/L

Structure (SMILES) | tested on | test | system | setting | how to read | quantity | result
CCCCN1C(=O)c2cccc3c(NCCN4CCOCC4)ccc(c23)C1=O | – | – | dichloromethane | – | – | fluorescence quantum yield | 0.16
O=C(NC1CCCC1)c1ccnc(N2Cc3cn(Cc4ccc(F)cc4)nc3C2)n1 | – | metabolic stability | human, liver microsomes | – | – | half-life | 9 min
CCN(CC)c1ccc2c(c1)O[B-]1(c3ccccc3)OC(=O)C(c3ccccc3)=N[N+]1=C2C (centres unmarked) | – | UV/vis decay | aqueous buffer | – | – | hydrolysis activation energy | 21.9 kcal/mol
COC1CN([C@H]2CC[C@H]([C@@]3(C)Oc4c(Cl)cc(C(=O)NCc5c(SC)cc(C)[nH]c5=O)c(C)c4O3)CC2)C1 | – | RNA-seq, refers to: VLDLR | human, whole blood | dose not given, 24 h | reference: pretreatment baseline | log2 fold change | 3.74
C=C[C@]1(C)C[C@@H](OC(=O)CSc2ccc(NC(=O)c3ccco3)cc2)[C@]2(C)[C@H](C)CC[C@]3(CCC(=O)[C@H]32)[C@@H](C)[C@@H]1O | – | – | Mycoplasma gallisepticum-infected chickens, plasma | intramuscular, 5 mg/kg, 12 h | – | plasma concentration | 1.89 ng/mL and 14 ng/mL and 1.8 ng/mL and 12.7 ng/mL and 3.04 ng/mL and 8.21 ng/mL
O=C(NS(=O)(=O)c1cccs1)c1cc2ccccc2n1Cc1ccc(Br)c2ccccc12 | – | – | Sprague-Dawley rat, male | intravenous, dose not given, 1 h | – | plasma concentration | 184 ng/mL
CN1CCC[C@]1(C)/C=C/S(=O)(=O)NC(=O)Nc1c2c(cc3c1CCC3O)CCC2 (some centres unmarked) | – | – | human, plasma | oral, 50 mg twice daily of parent drug, metabolite of dosed drug | reference: day 14 over day 1 | AUC(0-24) accumulation ratio | 1.4
CCCC[C@H]1C(=O)N(C)[C@@H](CCCC)C(=O)N[C@@H](CCCCNC(=S)Nc2ccc(CN3CCN(CC(=O)O)CCN(CC(=O)O)CC3)cc2)C(=O)N[C@H](C(=O)NCC(N)=O)CSCC(=O)N[C@@H](Cc2ccc(O)cc2)C(=O)N(C)[C@@H](C)C(=O)N[C@@H](CC(N)=O)C(=O)N2CCC[C@H]2C(=O)N[C@@H](Cc2cnc[nH]2)C(=O)N[C@@H](CCC(=O)O)C(=O)N2C[C@H](O)C[C@H]2C(=O)N[C@@H](Cc2c[nH]c3ccccc23)C(=O)N[C@@H](CO)C(=O)N[C@@H](Cc2cn(CC(=O)O)c3ccccc23)C(=O)N1C [fluorine-18 labelled] | – | PET, refers to: PD-L1 | huCD34 mouse A-375 xenograft, tumour periphery beyond 3 mm | combination therapy | – | SUV | 2.38 ± 0.75 SUV
Cc1cc(-c2ccc(C(=O)[C@@H]3CCCC[C@H]3C(=O)Nc3cnn4c3C(=O)NCC4)cc2)[nH]n1 | – | – | human, urine | oral, 200 mg, 0-216 h | reference: dose | cumulative recovery of radioactivity | 5.9%
O=C(O)CCCCC1(N(CC(=O)O)CC(=O)O)CN(CC(=O)O)CCN(CC(=O)O)C1 | – | pH-potentiometry, refers to: logK3H | 0.15 M NaClO4 | 25 °C | – | protonation constant (log) | 4.73
C=C(NC(=O)c1csc(-c2nc3c(cc2O)-c2nc(cs2)C(=O)NC(C(C)O)C(=O)NC(=C(C)OC)c2nc(cs2)C(=O)NC2c4nc(cs4)C(=O)NC(COC(=O)c4c5c6c(cccc6n4O)COC(=O)C(OC4CC(C)(O)C(N(C)C)C(C)O4)C2OC5)c2nc-3cs2)n1)C(N)=O (centres unmarked) | – | – | cynomolgus monkey, plasma | intravenous, 1 mg/kg, single dose, infusion | – | Cmax | 13500 ng/mL
C=CC(=O)Nc1cc(Nc2nccc(-c3cn(C)c4ccccc34)n2)c(OC)cc1N(C)CCNC | – | – | human, dried blood spots | 10 d, -80 °C, high QC level | – | remaining compound | 102%
CC[C@H](C)[C@H](NC(=O)[C@@H](NC(=O)[C@H](CCCCN)NC(=O)[C@@H](NC(=O)[C@@H]1CCCN1[C@@H]1CN(C(=O)[C@@H](NC(=O)[C@@H](NC(=O)[C@@H](NC(=O)[C@@H](NC(=O)[C@@H](NC(=O)[C@@H](N)CCCCN)C(C)C)C(C)C)C(C)C)[C@@H](C)CC)[C@@H](C)O)CC[C@H]1NS(=O)(=O)c1ccc(C)cc1)[C@@H](C)O)C(C)C)C(=O)N[C@@H](CC(C)C)C(=O)N[C@@H](Cc1c[nH]cn1)C(N)=O | – | circular dichroism | methanol | 125 µM, 20 °C | – | beta-sheet content | 83%
Cc1ncsc1-c1ccc(C(C)NC(=O)C2CC(O)CN2C(=O)C(NC(=O)CCCCCCCCCCN2CCCC(Nc3ncc(Cl)c(Nc4ccccc4S(=O)(=O)C(C)C)n3)C2)C(C)(C)C)cc1 (centres unmarked) | 22Rv1 | RNA-seq, refers to: SPATA3-AS1 | – | concentration not given | reference: DMSO | log2 fold change | -3.94
CN1CCC[C@]1(C)/C=C/S(=O)(=O)NC(=O)Nc1c2c(cc3c1CCC3)CC=C2 | – | – | human, plasma | oral, 100 mg twice daily of parent drug, day 14, metabolite of dosed drug | – | AUC(0-24) | 932 µg·h/mL
CN(O)C(=O)CCC(=O)NCCCN(CCCCN(CCCNC(=O)CCC(=O)N(C)O)C(=O)CCC(=O)N(C)O)C(=O)CCC(=O)N(C)O.[89Zr] | – | radio-TLC | aqueous buffer | 3 d, pH 7.2, 37 °C, 89Zr-labelled complex, together with: CaCl2 10-fold excess | – | intact complex | 99.6 ± 0.8%

Excerpt of the above:
Structure (SMILES) | tested on | test | system | setting | how to read | quantity | result
C=CC(=O)Nc1cccc(Cn2ncc3cnc(Nc4cnn(CCOC)c4)nc32)c1 | CSNK1G2 human | binding, KINOMEscan | – | 100 nM | lower = stronger binding | percent of control | 94%
Cc1nc(N)nc2c1C(=O)N[C@@H](c1ccc(F)cc1-c1cccc(O[11CH3])n1)C2 | – | radioligand, ex vivo biodistribution | mouse, MDA-MB-231 xenograft, red blood cells | 60 min p.i. | – | SUV | 0.9 ± 0.1
N[C@@H](CC(=O)O)C(=O)OC(C(=O)O)c1ccc(Br)cc1[N+](=O)[O-] (mixture of isomers) | – | 1H NMR, dark | 50 mM sodium phosphate | concentration not given, pH 5.8, room temperature, 12.5% DMSO-d6 | – | hydrolysis half-life, A isomer | 618 ± 24 min
